Results collected from several papers.
Numbered parts are unrelated; each lists some results of a single study. Substitutions count along the parent as printed.

Set 1
Target: Fragile X messenger ribonucleoprotein 1, C-terminal low-complexity region (Fmr1, Mus musculus, UniProt P35922)
Method: RNA Bind-n-Seq
Form: RNA
Matrix: in vitro
Concentration: 200 nM
Setting: whole 134-nt RNA, ends assumed
Together with: 150 mM LiCl
Baseline: input library
Direction: higher = stronger binding
Each molecule: 7-deaza-guanosine replaces G
With `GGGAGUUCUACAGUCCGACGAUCUUUCUAGGGAAGGUGCUUCUGGAAAAGUUGCUGAGGUCUUGUCCUAAGGUGAAUUCAGUAUAUGUUUUGGUGAGGCAGAAAGCUGGACAGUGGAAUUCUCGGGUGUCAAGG` the log2 enrichment was -2.62.
With `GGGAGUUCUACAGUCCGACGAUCAGUCCUGUGCUACACAUCGUAUGUACCGAAUCGGGCCCCCGGGCCCCCGGCCCCCGGGAAAGUAUUAUGUUACGCCGUUCGGAUCUGCACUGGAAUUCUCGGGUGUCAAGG` the log2 enrichment was -2.25.
The log2 enrichment of `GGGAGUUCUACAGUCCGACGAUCUCCUCAAGUCCUGUGCUACACAUCGUAUGUACCGAAUCGGAAAGGAGGAGGAAAGUAUUAUGUUACGCCGUUCGGAUCUGCACUUCCAGCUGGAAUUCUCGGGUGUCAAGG` is reported as -2.27.
With `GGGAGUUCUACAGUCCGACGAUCCAGAACGAUCGAUACAGAAACCACGCUGCCGCCACCACACCAUCACCAUCGACAGAACAGUCCUUAAUCCAGAAACCUGAAAUGAAGGAAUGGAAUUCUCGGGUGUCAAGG` the log2 enrichment was 1.23.
`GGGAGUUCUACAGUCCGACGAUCUCAAGUCCUGUGCUACACAUCGUAUGUACCGAAUCGGAGGAAAAAAAGGUUUGGAAAGUAUUAUGUUACGCCGUUCGGAUCUGCACUUCCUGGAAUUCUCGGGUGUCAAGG` has a log2 enrichment of -1.99.
`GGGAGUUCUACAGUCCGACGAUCAGUCCUGUGCUACACAUCGUAUGUACCGAAUCGGUUUUUGGUUUUUGGGGUUUUUGGGAAAGUAUUAUGUUACGCCGUUCGGAUCUGCACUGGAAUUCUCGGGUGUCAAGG` has a log2 enrichment of -1.26.
With `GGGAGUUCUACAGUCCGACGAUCCCUCAAGUCCUGUGCUACACAUCGUAUGUACCGAAUCGGCGGGGCGGCGGGGAAAGUAUUAUGUUACGCCGUUCGGAUCUGCACUUCCAGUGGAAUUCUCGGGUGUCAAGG` the log2 enrichment was -0.116.
For `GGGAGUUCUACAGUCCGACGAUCUGGCUGCAGGCGCACCCCGGCAGGAUUUUGCCUCCGCUGUCGCCCCCGCAGCACCGCUACUCGGAGGGCGAGCGGACCUCCCUGGAGAAGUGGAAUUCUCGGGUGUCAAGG`, the log2 enrichment was -2.97.

Set 2
Target: ATP-dependent RNA helicase DDX3X, helicase core (DDX3X, Homo sapiens, UniProt O00571, residues 132-607)
Sequence of UniProt O00571 (132-607, looked up): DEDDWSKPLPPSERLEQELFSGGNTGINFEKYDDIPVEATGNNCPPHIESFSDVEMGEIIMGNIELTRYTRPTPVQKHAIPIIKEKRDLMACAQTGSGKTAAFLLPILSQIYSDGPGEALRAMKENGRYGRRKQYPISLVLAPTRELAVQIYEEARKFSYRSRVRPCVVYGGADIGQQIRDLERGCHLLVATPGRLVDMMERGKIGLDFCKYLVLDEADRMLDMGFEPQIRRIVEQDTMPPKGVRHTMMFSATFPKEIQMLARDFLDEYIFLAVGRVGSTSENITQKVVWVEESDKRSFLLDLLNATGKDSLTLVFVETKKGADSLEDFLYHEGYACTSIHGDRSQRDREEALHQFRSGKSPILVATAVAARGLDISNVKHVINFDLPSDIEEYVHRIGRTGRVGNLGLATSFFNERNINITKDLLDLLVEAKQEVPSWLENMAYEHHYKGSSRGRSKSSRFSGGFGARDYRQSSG
Method: RNA Bind-n-Seq
Form: RNA
Matrix: in vitro
Concentration: not given
Setting: 4-mer, random 30-nt RNA, single round
Together with: RocA, ADP, phosphate
Baseline: input library
Direction: higher = stronger binding
The 4-mer enrichment of `ACAU` is reported as 0.722 fold.
With `UGAG` the 4-mer enrichment was 2.1 fold.
For `UAUU`, the 4-mer enrichment was 0.949 fold.
With `UCUG` the 4-mer enrichment was 0.804 fold.
`UCCC` has a 4-mer enrichment of 0.933 fold.
For `UAGC`, the 4-mer enrichment was 0.804 fold.
`UGGU` gave a 4-mer enrichment of 1.1 fold.
The 4-mer enrichment of `CUUA` is reported as 0.714 fold.

Further values, each from its own experiment
P1: viral docking peptide; KGVKRKLFAEDSS; partner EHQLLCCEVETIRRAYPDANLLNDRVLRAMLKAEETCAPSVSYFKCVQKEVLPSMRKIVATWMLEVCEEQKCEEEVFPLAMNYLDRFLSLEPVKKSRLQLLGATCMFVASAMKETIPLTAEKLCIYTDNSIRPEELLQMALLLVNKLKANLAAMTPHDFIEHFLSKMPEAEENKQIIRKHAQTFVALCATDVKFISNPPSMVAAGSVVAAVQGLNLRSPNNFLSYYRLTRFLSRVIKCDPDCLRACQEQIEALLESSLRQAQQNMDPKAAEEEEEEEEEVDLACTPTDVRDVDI
For `PRPF6 (Homo sapiens, UniProt O94906)`, cross-linked residues read “E99 to K480” (PRPF8 (Homo sapiens, UniProt Q6P2Q9); cross-linking MS; cell fractions; together with: DMTMM).
Under “normalised enrichment score”, `P1 G2R` is recorded as 1.8 (CCND1, cyclin fold, Cln2 fusion (human); yeast growth competition, sequencing; yeast; strong parent motif; baseline: not given, higher = stronger binding).

Repeated from above (set 1):
`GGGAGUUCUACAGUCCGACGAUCUCAAGUCCUGUGCUACACAUCGUAUGUACCGAAUCGGAGGAAAAAAAGGUUUGGAAAGUAUUAUGUUACGCCGUUCGGAUCUGCACUUCCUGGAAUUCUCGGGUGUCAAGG` has a log2 enrichment of -1.99.
